{"data": "Assay results of several laboratories", "note": "Each numbered part is a random draw from the data of one study; scales do not carry over between parts."}
{"data": "Study 1", "target": "Ras GTPase-activating protein-binding protein 1, full length (G3BP1, Homo sapiens, UniProt Q13283)", "method": "RNA Bind-n-Seq", "molecule type": "RNA", "matrix": "in vitro", "tested at": "200 nM", "setting": "whole 134-nt RNA, ends assumed", "together with": "150 mM LiCl", "relative to": "input library", "reading": "higher = stronger binding", "all molecules": "7-deaza-guanosine replaces G", "all sequences stand within": "GGGAGUUCUACAGUCCGACGAUC … UGGAAUUCUCGGGUGUCAAGG", "UniProt Q13283, sequence (whole entry, looked up)": "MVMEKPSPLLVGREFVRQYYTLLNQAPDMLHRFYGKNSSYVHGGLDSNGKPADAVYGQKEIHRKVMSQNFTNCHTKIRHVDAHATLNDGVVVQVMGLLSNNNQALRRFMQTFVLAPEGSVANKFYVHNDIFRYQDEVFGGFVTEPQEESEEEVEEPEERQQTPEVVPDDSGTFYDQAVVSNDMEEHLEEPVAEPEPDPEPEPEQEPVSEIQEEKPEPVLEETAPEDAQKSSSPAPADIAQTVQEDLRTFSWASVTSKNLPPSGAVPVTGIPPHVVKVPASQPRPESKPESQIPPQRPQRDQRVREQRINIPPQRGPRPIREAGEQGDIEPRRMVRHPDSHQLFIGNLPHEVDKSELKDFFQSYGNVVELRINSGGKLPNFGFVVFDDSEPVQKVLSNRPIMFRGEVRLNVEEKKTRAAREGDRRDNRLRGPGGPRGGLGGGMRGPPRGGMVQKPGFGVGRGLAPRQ"}
{"Sequence": "UGGGAGGUGGAUUUUGUUUAUUUUUUUAGCUCAUUUCCAGGGGUGGGAACUUUUUUUUAAUAUGUGUCAUGAAUAAAGUUGUUUUUGAAA", "log2 enrichment": -0.612}
{"Sequence": "GCAGGAAGUAAAAACAAAUGGAAAUGCUUCGGAUAAAAGCAGGGGUGGGGGUUGCUAAGGAAAGGGUGGGAUGGGAGUGGGUAAAGAGUU", "log2 enrichment": 0.301}
{"Sequence": "CCUCAAGUCCUGUGCUACACAUCGUAUGUACCGAAUCGGCGGGCGGGGCGGGAAAGUAUUAUGUUACGCCGUUCGGAUCUGCACUUCCAG", "log2 enrichment": 0.541}
{"Sequence": "CACAGACAACACGCACCCACACAGACACAGAGGGAAGGGGUUGGGAUGGGAACAGGGUGCACAGCAGGGCGGGGUAGGACCCCAGCCCCU", "log2 enrichment": 0.544}
{"Sequence": "UAACUUUAGAGGAGGAUCUGAUGGAUAUGGCAGUGGACGUGGAUUUGGGGAUGGCUAUAAUGGGUAUGGAGGAGGACCUGGAGGUGACAA", "log2 enrichment": 0.147}
{"Sequence": "AGUCCUGUGCUACACAUCGUAUGUACCGAAUCAAACCCCCAAAUUUAAACCCCCAAAAAAGUAUUAUGUUACGCCGUUCGGAUCUGCACU", "log2 enrichment": 1.44}
{"Sequence": "CCUGUGCUACACAUCGUAUGUACCGAAUCGGGGCCCCCCGGCCCCCCGGGGCCCCCCGGGGAAAGUAUUAUGUUACGCCGUUCGGAUCUG", "log2 enrichment": 0.102}
{"Sequence": "GUGCUACACAUCGUAUGUACCGAAUCGGGGUUUUUUUGGGGUUUUUUUGGGGAAAAAAAGGGGAAAGUAUUAUGUUACGCCGUUCGGAUC", "log2 enrichment": 1.23}
{"Sequence": "CUCAAGUCCUGUGCUACACAUCGUAUGUACCGAAUCGGAAAGGAAAAAGGAGGAAAGUAUUAUGUUACGCCGUUCGGAUCUGCACUUCCA", "log2 enrichment": -0.222}
{"Sequence": "CUCAAGUCCUGUGCUACACAUCGUAUGUACCGAAUCGGGUUGGGUUGGGUUGGGAAAGUAUUAUGUUACGCCGUUCGGAUCUGCACUUCC", "log2 enrichment": 0.247}
{"Sequence": "UCCGCACACCCGGCCUGUCACCCUGCUUUCCCUGCCUCUACUUGACUUGGAAUUGGCUGAAGACUACACAGGAAUGCAUCGUUCCCACUC", "log2 enrichment": -0.00677}
{"data": "Study 2", "target": "RING finger protein unkempt homolog, zinc fingers 1-6, GST-SBP tag (UNK, Homo sapiens, UniProt Q9C0B0, residues 30-357)", "method": "RNA Bind-n-Seq", "molecule type": "RNA", "matrix": "in vitro", "tested at": "not given", "setting": "RNA with constant flanks, human and mouse sites, ends assumed", "relative to": "input RNA pool", "reading": "higher = stronger binding", "all sequences stand within": "GGGAGUUCUACAGUCCGACGAUC … CAACAGAGGAUUGAGCAUCA", "UniProt Q9C0B0, sequence (30-357, looked up)": "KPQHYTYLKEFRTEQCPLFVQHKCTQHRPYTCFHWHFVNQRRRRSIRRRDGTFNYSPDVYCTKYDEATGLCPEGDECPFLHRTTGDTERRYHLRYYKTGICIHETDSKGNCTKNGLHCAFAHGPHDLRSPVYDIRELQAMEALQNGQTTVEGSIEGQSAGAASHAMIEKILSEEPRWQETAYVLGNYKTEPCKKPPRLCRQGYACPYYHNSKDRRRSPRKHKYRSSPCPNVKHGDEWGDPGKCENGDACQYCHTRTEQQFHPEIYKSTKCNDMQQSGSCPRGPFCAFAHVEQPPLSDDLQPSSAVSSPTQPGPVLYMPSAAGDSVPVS"}
{"Sequence": "AACAAACUUAUAGUGAUGCGUUGGAAGGUUAAUCGAAACCAUCCUUACCCCUAUUUAAUGUAGUUUACCUUGAUUUUUAUCUGAUAUUAACAAUACCAUAUAGCUUGCUUUUUAUUAGCA", "bound/input enrichment [ratio]": 29.8}
{"Sequence": "AUAAUGUUUGAGUCCUUCAAUGUUCCAGGCUUGUACAUUGCUGUGCAGGCUGUUCUUGCCUUAGCUGCAUCUUGGACCUCAAGACAAGUAGGAGAACGGACGUUGACCGGUACGGUAAUA", "bound/input enrichment [ratio]": 0.186}
{"Sequence": "CCUCAUAGACCUUAUUAGAUAAUGCUGUUUUCUGGGCUCCUUAACUUCCAAAAUAGCUACUAGUUUCCAUUUUUGGUUACAUUGUGAACUAUUUCCAUAUUCCUCUUAACAUGCUAUUUU", "bound/input enrichment [ratio]": 11.9}
{"Sequence": "GCUAUAUCUAGCAGUAUGGAAAUUGACCAAGGUGAAAAGAAUGAAGAUGAAACUUCUGCAGAUCUUGUAGAAACGAUUAAUGAAAAUGUUAUUGAAGAUAACAAAAGUGAGAAUAUCUUA", "bound/input enrichment [ratio]": 0.635}
{"Sequence": "GGAGGGAUCGUCCUUGUCUUGGGUGUGCAGGCUGUAAUUUUCUUUCUCUAUAAGUUCUGCAAAUCUAAAGAACGAAAUUACCAUACUCUGUAAACAGACCUGUUAAAUUAAUGUGGACUG", "bound/input enrichment [ratio]": 0.216}
{"Sequence": "UCUCCAUCUUGUUACAUUCCACUGCGGAGACUACAGGAUUUGGCCUCCAUGAUCAAUGUAGAAUAUUUAAGUGGGUCUGCUGAUGGAUCAGAAUCCUUUCAAGACCCUGCAAAAAGUGAU", "bound/input enrichment [ratio]": 0.617}
{"Sequence": "GUUACUAUUUCUACAUGUUGUCCAUGAUGUGACUUUCGUAAACCUUCAAAAUUAUUUGGGCAUAGUGCUCUAUGUUUAAUAAAGGUUUUUAUAGAUGUUUUAUUCCAUAUGUCUUCACAA", "bound/input enrichment [ratio]": 0.2}
{"Sequence": "CGGUUGGUGUGGAGAACUCUGCGAGUCUCUUGGGUUUUUUGUUUUUUGUUUUUUCCAGCUUCUUUCCGCCUCUAUUCUGCCUGUUCUGUAGGGCGCAGUUAUGGGUCGCAAGAAGAAGAA", "bound/input enrichment [ratio]": 0.363}
{"Sequence": "CAGUGGGAUGGGGAGCAAAGUCCCAGAGGGGAGCGCAACAGGUGGAAGUAUGAGGAGUUUUUAGAUCAUCCAGGCCAUAUCCACAGUAGUCCUUGCCACGAAAGGCCCAACAAUGUCUCU", "bound/input enrichment [ratio]": 0.121}
{"Sequence": "AAAGGAGAAUCUGGCCAGUCAUGGCCAAGGUUAACAAAAGAAAGGGCAAAGCUUAAUUGGCUUAGUGUCGACUUCAAUAAUUGGAAAGACUGGGAAGAUGAUUCAGAUGAAGACAUGUCU", "bound/input enrichment [ratio]": 0.358}
{"Sequence": "GUCCAGGGAUUCCAGGUUGAAUACAAAGACUUCCCCAAAAACAACAAGAACGAAUUUGUAUCUCUUAUCAAUUGCUCCUCUCAGCCACCUCUGAUCAGCCAUGGUAUCGGCAAGGAUGUG", "bound/input enrichment [ratio]": 0.253}
{"data": "Study 3", "target": "RNA binding protein fox-1 homolog 2, RRM domain, GST-SBP tag (RBFOX2, Homo sapiens, UniProt O43251-10, residues 100-194)", "method": "RNA Bind-n-Seq", "molecule type": "RNA", "matrix": "in vitro", "tested at": "365 nM", "setting": "natural RNA segment, single round, ends assumed", "relative to": "no-protein control", "reading": "higher = stronger binding", "all sequences stand within": "GGGAGUUCUACAGUCCGACGAUC … UGGAAUUCUCGGGUGCCAA", "Target sequence (chain)": "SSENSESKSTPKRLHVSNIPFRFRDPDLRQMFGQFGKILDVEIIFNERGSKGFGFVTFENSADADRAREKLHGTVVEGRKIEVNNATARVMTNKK"}
{"Sequence": "CAGAGUCUUCCUGGCCUUUUUCCCUCCACCUUUUUGUAGUUACUCGGGGGCUUACUUGUGCAGUACUAAAAUCAAAGGAGCUGGUUCUUCUUUUCUCCCAAUCUUUUCUU", "RBNS enrichment (R)": 0.53}
{"Sequence": "UCCAAACUGCCUCUGGCCACUCAGAAGAUGAGGUUGGCUUGGCACUUCACUGUCCCUGAUAUCUGGAGGUGAGAUGGCAGAGAGGGGCACCAGUGGAGCCAGGAUUGGGG", "RBNS enrichment (R)": 0.365}
{"Sequence": "CUUGACCAGACCCCUUCUCCCUGACCUGGCUCUUCCAGCCAGGGCACGAGCCCUCCUUCUAUACCUGCUCCCCUUCCCCCAGUGGGGACUGAGUUAUGGGAGAAGGGGAC", "RBNS enrichment (R)": 0.381}
{"Sequence": "UUCUAGCCUAUUUACCUGCAGGCUGAGCCACUCUCUUCCCUUUCCCCAGCAUCACUCCCCAAGGAAGAGCCAAUGUUUUCCACCCAUAAUCCUUUCUGCCGACCCCUAGU", "RBNS enrichment (R)": 1.62}
{"Sequence": "UUGGUAGUUAAGCAAACUGACAUUACGGAAAGUGCCUUAGACACUACAGUACUAAGACAAUGUUGAAUAUAUCAUUCGCCUCUAUAACAAUUUAAUGUAUUCAGUUUUGA", "RBNS enrichment (R)": 0.36}
{"Sequence": "AGCAAUCCGCCCACCUUGACUUCCCAAAGUGCUGGGAUUAUGGGCGGGUGUGAGCCAUUGCGCCCAGCCUUGAAGUCAUGUUCUAAAUUGUAUUUGAAUUUGUGCCUCUU", "RBNS enrichment (R)": 0.227}
{"Sequence": "AAUUAUCAGGGAUUUUAUGUAUUGUACAUAGAUGACAAUAGGAAAUUGUUUAUUUCAAGAAAUAGCUUUGUUACAGUAAAAUAUUUGUCAUUUAAAACCCAGCUGUUUAG", "RBNS enrichment (R)": 0.463}
{"Sequence": "GCCUCAUGAUUGUCUGGAGUGUAUCAUGAAACAAAAGUCCACCAUGGAUUGCAAGCUUUAGAACGAAUCAAGCAUUUUCCCUAGCCAGGCAAGGCAUUCGUUUCCUUACU", "RBNS enrichment (R)": 0.266}
{"Sequence": "GGUGUCACAAUGUAGGGUACCAAGGGUUGGAUUGUGAUGGGGCAUGGUCGUACACUGCUCAUUGUGCCACAGGUGUGACUGGAAAGCAUGAUAUUCUAGGGUUGGUUUGU", "RBNS enrichment (R)": 14}
{"Sequence": "AUAAUAAAAAUGUUAACCAGAAGGUAAACUUGAGUGUAAUUGUCAGACAGACACACUUUUCCACCAGUGUAUUUGAAUUUUAGACCAGUGACCCUGUUUUGUGGCAUUCA", "RBNS enrichment (R)": 0.746}
{"Sequence": "UUACGAUUUUGUAAUAAAUGUGUACAUUUUUUUUAAAUUUUUGGACAUCACAUGAAUAAAGGUAUGUAUGUACGAAUGUGUAUAUAUUAUAUAUAUGACAUCUAUUUUGG", "RBNS enrichment (R)": 0.549}
{"Sequence": "AGGCCUCACCCCAGGGACAGGGCCCUGGAGCUCAGGGUCCUUGUUUCUGCCCUGCCAGCUGCAGCCUGGUUGGCAGCAUCUGCUCCAUCGGGGCAGGGGGUAUGCAGAGC", "RBNS enrichment (R)": 0.274}
{"data": "Study 4", "target": "Histone acetyltransferase KAT6A, winged helix 1, GST fusion (KAT6A, Homo sapiens, UniProt Q92794, residues 1-85)", "method": "protein binding microarray", "molecule type": "double-stranded DNA, one strand shown", "matrix": "in vitro", "tested at": "not given", "setting": "8-mer, flanks averaged, mean of 2 arrays, mostly near background", "relative to": "not given", "reading": "higher = stronger binding", "Residues (chain)": "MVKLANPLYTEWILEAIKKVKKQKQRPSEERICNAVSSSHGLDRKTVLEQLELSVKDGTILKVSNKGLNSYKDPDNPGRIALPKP"}
{"Sequence": "ATCAGGAT", "E-score": -0.176}
{"Sequence": "TACGGGCA", "E-score": 0.29}
{"Sequence": "ACGCAAAT", "E-score": 0.0794}
{"Sequence": "CAGGCGGG", "E-score": 0.304}
{"Sequence": "ATAGGCAC", "E-score": -0.148}
{"Sequence": "AGCTAATG", "E-score": -0.258}
{"Sequence": "CTCGGCTA", "E-score": 0.171}
{"Sequence": "ACTGTCGA", "E-score": -0.218}
{"Sequence": "TAGTAACA", "E-score": -0.0248}
{"Sequence": "GTTTAGCA", "E-score": -0.0244}
{"Sequence": "CCCTTAAC", "E-score": -0.11}
{"Sequence": "ATTTCGAG", "E-score": -0.16}
{"Sequence": "ATCCCGGG", "E-score": 0.353}
{"Sequence": "GCCCCCGA", "E-score": 0.139}
{"Sequence": "GCGGCAAC", "E-score": 0.36}
{"Sequence": "ATTCCGAC", "E-score": 0.18}
{"Sequence": "CGAACCTA", "E-score": 0.0783}
{"note": "Excerpt of the above (study 4):"}
{"Sequence": "ATAGGCAC", "E-score": -0.148}
{"Sequence": "ATTCCGAC", "E-score": 0.18}
{"Sequence": "ACTGTCGA", "E-score": -0.218}
{"Sequence": "GCCCCCGA", "E-score": 0.139}
